Results collected from several papers.
Each numbered part is a random draw from the data of one study; scales do not carry over between parts.

Sample 1 — technique: protein-binding microarray; form: double-stranded DNA, one strand shown; sample: in vitro; tested at: 2540 nM top; setting: 60-bp whole probe; with: salmon DNA 0.4 mg/ml; reference: random background probes; direction: higher = stronger binding; all sequences stand within: GCCTAGCAC … GTCTTGATTCGCTTGACGCTGCTG
Target: Interferon regulatory factor 3, full length, phosphomimetic (IRF3, Homo sapiens, UniProt Q14653, residues 1-427, S386D/S396D/S398D/S402D/T404D/S405D)
Chain of UniProt Q14653 (whole entry, unmodified, looked up): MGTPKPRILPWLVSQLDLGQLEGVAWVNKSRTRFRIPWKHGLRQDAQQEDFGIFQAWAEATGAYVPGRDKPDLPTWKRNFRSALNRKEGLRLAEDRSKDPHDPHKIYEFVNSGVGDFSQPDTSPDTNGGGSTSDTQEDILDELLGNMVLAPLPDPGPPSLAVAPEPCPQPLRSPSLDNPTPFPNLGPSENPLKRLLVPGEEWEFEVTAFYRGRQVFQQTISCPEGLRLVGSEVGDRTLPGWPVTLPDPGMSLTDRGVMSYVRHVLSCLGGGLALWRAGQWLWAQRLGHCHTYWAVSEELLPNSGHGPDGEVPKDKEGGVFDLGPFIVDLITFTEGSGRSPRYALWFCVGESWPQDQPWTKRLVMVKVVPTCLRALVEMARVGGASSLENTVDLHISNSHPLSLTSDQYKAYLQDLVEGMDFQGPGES
`TTAGAACTGTGTCTCGATTAGTGCTAG` — result for “fitted relative affinity”: -0.2 z-score.
`TTAGGTATCGCCTTTCGGTTAGTGCTA` — result for “fitted relative affinity”: 1.4 z-score.
`GACGACATCAGTCTCGAGACGTGCTAG`: “fitted relative affinity” -0.164 z-score.
`GTAGGACTGGACTATCGGTTAGTGCTA`: “fitted relative affinity” -0.513 z-score.
`TCACAAAAATGATTGGTACTGTGCTAG` — result for “fitted relative affinity”: -0.208 z-score.
`ATAGGTCTCCTTTTCCTTTAGTGCTAG` — result for “fitted relative affinity”: 5.2 z-score.
`TCATCTCACGCATCTGAAACTGTGCTA` — result for “fitted relative affinity”: 0.656 z-score.
For `GACGGGTTCGGGTTTCGGGACGTGCTA`, “fitted relative affinity” read 1.46 z-score.
For `TTTGGTATCCTTCTCCTTTAGTGCTAG`, “fitted relative affinity” read 8.06 z-score.
Under “fitted relative affinity”, `TTAGAACTGGGATATCGATTAGTGCTA` is recorded as -0.395 z-score.
`TTAGAACTGAGACTGAATTAGTGCTAG` — result for “fitted relative affinity”: -0.0343 z-score.
`TTAGGACTGGGTTTCGTTTAGTGCTAG` — result for “fitted relative affinity”: 1.76 z-score.
`GACGAGTTCGGGTATCGAGACGTGCTA`: “fitted relative affinity” -0.0472 z-score.
`GACGGTTTCGGTTCCGGGTCGTGCTAG` — result for “fitted relative affinity”: 10.5 z-score.
`GGCGAACTGAGTATCGAGACGTGCTAG` — result for “fitted relative affinity”: -0.356 z-score.
For `GACGGTCTCCTTTTCCTGCCGTGCTAG`, “fitted relative affinity” read 4.68 z-score.
`TCAACTTTCTATCTCTGACTGTGCTAG` — result for “fitted relative affinity”: 2.84 z-score.
`TTAGGTATCGAATTTCGGTTAGTGCTA`: “fitted relative affinity” 2.01 z-score.
For `TCATTTCTTTCAAATGAAACTGTGCTA`, “fitted relative affinity” read 2.06 z-score.

Sample 2 — technique: universal PBM; form: double-stranded DNA, one strand shown; sample: in vitro; tested at: 600 nM; direction: higher = stronger binding
Target: Sal-like protein 4, full length isoform A (SALL4, Homo sapiens, UniProt Q9UJQ4, residues 1-1053)
Chain of UniProt Q9UJQ4 (whole entry, looked up): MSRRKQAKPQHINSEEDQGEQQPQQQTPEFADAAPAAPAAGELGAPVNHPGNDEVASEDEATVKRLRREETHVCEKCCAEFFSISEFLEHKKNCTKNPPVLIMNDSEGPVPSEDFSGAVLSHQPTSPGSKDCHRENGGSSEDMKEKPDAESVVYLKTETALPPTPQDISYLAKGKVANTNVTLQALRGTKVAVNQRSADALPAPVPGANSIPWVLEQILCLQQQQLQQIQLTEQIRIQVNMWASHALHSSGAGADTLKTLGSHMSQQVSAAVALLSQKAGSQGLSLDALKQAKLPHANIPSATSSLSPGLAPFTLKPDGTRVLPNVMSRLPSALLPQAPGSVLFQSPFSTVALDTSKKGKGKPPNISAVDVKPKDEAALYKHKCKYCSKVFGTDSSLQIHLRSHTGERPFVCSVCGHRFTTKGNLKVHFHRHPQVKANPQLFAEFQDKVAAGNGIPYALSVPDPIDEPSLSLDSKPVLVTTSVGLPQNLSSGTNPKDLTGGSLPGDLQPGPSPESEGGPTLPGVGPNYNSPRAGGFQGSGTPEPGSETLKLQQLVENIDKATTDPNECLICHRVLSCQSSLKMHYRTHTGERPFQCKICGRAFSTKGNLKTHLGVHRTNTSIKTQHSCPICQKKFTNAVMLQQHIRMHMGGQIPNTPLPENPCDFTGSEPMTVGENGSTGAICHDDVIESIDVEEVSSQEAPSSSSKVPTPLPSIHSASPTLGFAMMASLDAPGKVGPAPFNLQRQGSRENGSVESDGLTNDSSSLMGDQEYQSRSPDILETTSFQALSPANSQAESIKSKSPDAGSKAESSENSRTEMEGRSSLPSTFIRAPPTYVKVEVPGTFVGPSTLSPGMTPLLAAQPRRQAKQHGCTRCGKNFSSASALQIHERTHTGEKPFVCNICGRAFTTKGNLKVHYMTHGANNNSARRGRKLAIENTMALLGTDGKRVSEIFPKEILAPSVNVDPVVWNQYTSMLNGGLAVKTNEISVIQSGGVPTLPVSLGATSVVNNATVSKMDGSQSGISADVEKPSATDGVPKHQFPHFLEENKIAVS
Setting: 8-mer, flanks averaged, mean of replicates
The E-score of `CAGAGTGC` is reported as -0.14.
`CTATCTCA` gave an E-score of 0.0805.
With `CAAGATCA` the E-score was 0.0496.
For `GGAGGGCC`, the E-score was -0.357.
For `GAGTCGAA`, the E-score was -0.0522.
`GGGACCAC` gave an E-score of -0.262.
With `TCAGAGGA` the E-score was 0.0227.
`GAAACATC` has an E-score of 0.108.
For `AGGACCCC`, the E-score was -0.352.
For `CCACCGGG`, the E-score was -0.38.
With `TAGCTCCA` the E-score was -0.0205.
`ATCGAGTA` gave an E-score of -0.0309.
`CCTTTGGC` has an E-score of -0.0985.
For `CAGCACGC`, the E-score was -0.18.
`ATTGGTCG` gave an E-score of 0.00843.
The E-score of `ACTAAAAT` is reported as 0.289.
`GAGCGTGA` has an E-score of -0.203.
With `ATGCTGGC` the E-score was -0.0529.
The E-score of `CTGCTTGC` is reported as -0.105.
`CACGCGTG` has an E-score of -0.214.
`CCTATGTC` has an E-score of 0.0203.
For `CTTTTTCA`, the E-score was 0.252.
With `ACAGCGAT` the E-score was -0.162.
`ATTCGGTA` has an E-score of 0.217.
For `CCTGCAAA`, the E-score was -0.0523.

Sample 3 — technique: RNA Bind-n-Seq; form: RNA; sample: in vitro; tested at: 365 nM; reference: no-protein control; direction: higher = stronger binding
Target: RNA binding protein fox-1 homolog 2, RRM domain, GST-SBP tag (RBFOX2, Homo sapiens, UniProt O43251-10, residues 100-194)
Setting: natural RNA segment, single round, ends assumed
All sequences stand within: GGGAGUUCUACAGUCCGACGAUC … UGGAAUUCUCGGGUGCCAA
Construct (chain): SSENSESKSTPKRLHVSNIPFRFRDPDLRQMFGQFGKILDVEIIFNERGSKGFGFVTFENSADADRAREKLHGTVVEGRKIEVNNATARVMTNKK
`CCAGGAUGCUGCUGCAGGUGGCGUAUCAUCGUACACACUCAGUGACAUUUCUAUCACAAUCAUUUUAUGGAAGAUGUGUGAUAAUCUGUUUUUACUGGUAUUAAUAAACA` — result for “RBNS enrichment (R)”: 0.344.
Under “RBNS enrichment (R)”, `AACACCAUGACUACUUCAUUUCUAGCUAAAUCAGAACUGCCUUCAACACUGGAGAAAGGGAGAAGUACUGCGCAACAGAGAUUAGAAGUCCAAAUGUGAAUGGCUGCAGG` is recorded as 0.404.
For `UAGUAGCCCUAGGAAGGAGCUGAGAUCACAAGGAUGACAUUGAAGGAGACAACGGGGCAGUGGCAGCAGGUCAGCAUAUUUAAUAAAGUUGGAGUUGCUACAAAACCUGA`, “RBNS enrichment (R)” read 0.62.
Under “RBNS enrichment (R)”, `GUUGUUCUUUCGUUUCUGUCUAAAUGUCAGUGUGUUCAAACCCCCAGAGGGUUCUGUUUUUCCCAUUCCCUUCUGGACUUUAAAUAAAUAUUUAAAACUGAGCAAUGGAA` is recorded as 0.267.
`AGAUGGUUUUUGUUAAAUCUACUAAUAAACUGUUCUCUUAGUAGAUUAAGAGAGAGUAAUAUUAAUUGUGCAUGUGCAGUUGUAUUUCUCAUUAACUGACAGUAUGCCCA`: “RBNS enrichment (R)” 3.83.
Under “RBNS enrichment (R)”, `GGCUUAUUAAAGGAAUGUUGGUUUACAUUGUCUUCAAAGACAAGUAUAGAAGCUGUAUGUGUAAGGGUGACUUAAAUCAUAUGUCACAUUGUCUAAACUAUUCAGACACU` is recorded as 0.653.
For `UUUAAAAUAAAGCCCUGGGCCAGAAAGGCAAUGUGGCUAAAGAAUGUAUUGCACUAUACUUCUAAUGGAACUAAUCAUCUCCACCAUAGUGUGUGCCUUCUAUAAAGGAG`, “RBNS enrichment (R)” read 0.494.
`GUGAGGAGUUUCCUACCAGUUCACUCCAGUGCCAUUGUCUUUAUAUGAACGUAGUGUAGAGAAGCUGCCCUCCUCUUCCAUGGUAGCGCUCAAAGCCCUAAUGGAAGUUU`: “RBNS enrichment (R)” 0.302.

Sample 4 — technique: protein binding microarray; form: double-stranded DNA, one strand shown; sample: in vitro; tested at: not given; reference: not given; direction: higher = stronger binding
Target: Histone acetyltransferase KAT6A, both winged helices, GST fusion (KAT6A, Homo sapiens, UniProt Q92794, residues 1-181)
Setting: 8-mer, flanks averaged, mean of 2 arrays, mostly near background
Target sequence (chain): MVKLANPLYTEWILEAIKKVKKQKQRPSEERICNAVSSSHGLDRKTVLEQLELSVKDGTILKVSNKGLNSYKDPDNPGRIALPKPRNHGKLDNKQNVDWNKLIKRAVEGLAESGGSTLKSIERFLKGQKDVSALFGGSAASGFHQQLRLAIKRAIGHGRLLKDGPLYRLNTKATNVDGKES
For `GCGACCTA`, the E-score was 0.091.
`CCACTTAG` has an E-score of -0.179.
With `CCTATACA` the E-score was -0.182.
`ACCGCCCC` gave an E-score of 0.116.
For `GGGTTTCA`, the E-score was 0.135.
The E-score of `ACAGAAGA` is reported as -0.0473.
`CCTAATAC` gave an E-score of -0.137.
For `CAGCTCTC`, the E-score was -0.26.
For `CCGTCTAG`, the E-score was 0.232.
With `ACGGATGG` the E-score was 0.167.
`AAATTACT` gave an E-score of -0.13.
`CATGCCAC` has an E-score of -0.0329.
The E-score of `ACCTCATC` is reported as -0.186.
The E-score of `CCTACGAA` is reported as -0.122.
The E-score of `TCGCGAAA` is reported as 0.262.
`CCCCTGCG` has an E-score of 0.113.
The E-score of `ATCAGATG` is reported as -0.133.
The E-score of `CCAGACAA` is reported as -0.191.
`TCCTCTAA` gave an E-score of -0.139.
With `CACTCGTC` the E-score was -0.0264.
With `TAGAGGAA` the E-score was -0.138.
The E-score of `CCGATATC` is reported as 0.0643.
For `CTCCGCAC`, the E-score was 0.0718.
`CTAAAGTC` gave an E-score of -0.138.
`CCATAGCG` has an E-score of 0.106.
